Published values from different studies.
A part holds a random share of what one study measured.

Sample 1 — technique: protein binding microarray; molecule type: double-stranded DNA, one strand shown; matrix: in vitro; tested at: not given; relative to: not given; reading: higher = stronger binding
Target: Histone acetyltransferase KAT6A, winged helix 2, GST fusion (KAT6A, Homo sapiens, UniProt Q92794, residues 85-181)
Setting: 8-mer, flanks averaged, mean of 2 arrays, mostly near background
Target sequence (chain): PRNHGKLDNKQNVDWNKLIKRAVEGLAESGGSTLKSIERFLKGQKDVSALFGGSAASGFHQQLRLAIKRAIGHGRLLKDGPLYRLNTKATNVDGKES
| Sequence | E-score |
| --- | --- |
| GTAACAAA | 0.119 |
| ACGCGAGA | 0.117 |
| ATCTGAAG | -0.156 |
| AACAGATG | -0.121 |
| ATCAGAAG | 0.114 |

Sample 2 — technique: RNA Bind-n-Seq; molecule type: RNA; matrix: in vitro; tested at: 100 nM; relative to: input RNA pool; reading: higher = stronger binding
Target: RING finger protein unkempt homolog, zinc fingers 1-6, SBP tag (UNK, Homo sapiens, UniProt Q9C0B0, residues 30-357)
Chain of UniProt Q9C0B0 (30-357, looked up): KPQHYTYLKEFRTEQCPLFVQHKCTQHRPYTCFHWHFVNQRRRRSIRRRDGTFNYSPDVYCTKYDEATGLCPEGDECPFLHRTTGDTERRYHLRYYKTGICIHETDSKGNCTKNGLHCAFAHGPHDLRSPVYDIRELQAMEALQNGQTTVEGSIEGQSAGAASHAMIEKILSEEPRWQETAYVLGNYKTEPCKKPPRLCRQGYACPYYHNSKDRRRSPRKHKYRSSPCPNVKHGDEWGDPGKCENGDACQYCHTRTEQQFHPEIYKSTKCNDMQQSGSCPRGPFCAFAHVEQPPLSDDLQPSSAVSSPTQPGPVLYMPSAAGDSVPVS
Setting: RNA with constant flanks, vertebrate orthologous sites, ends assumed
| Sequence | bound/input enrichment [ratio] |
| --- | --- |
| GGGAGUUCUACAGUCCGACGAUCAUCCCAGUUUGUAUGCACAUUAUUCACAUUCCUAUCUGUUGUGUUUGCAGAAAUGACAUUUUUACCUUUUCUAAGGGUUACUUUUUGAUUUUCAUAUUAUUUGGUUGCAUGAAGUUGCCCCAACAGAGGAUUGAGCAUCA | 0.3 |
| GGGAGUUCUACAGUCCGACGAUCAGAAAAUUUUAAUCAAGAAUCUGAAGGCAGAAAUACAGGACCAUGGUUAUCUUCCUCACUUAGAAAUAGAUGCACACCUUUGUUCUCUAGAAGGAGGCGAGAGGGAAGAGAUGAAUCUUCCAACAGAGGAUUGAGCAUCA | 0.987 |
| GGGAGUUCUACAGUCCGACGAUCAUCCUUUCGCGCUGUCUCCGGCCGGGGUUGAGGACCAGACGUUUCACCGAGGACCUGCAUUUCAAACAAUUUUUUAAAUUGUACAGGAAGAGAUGUGCUGAAAACAGCAUCUCAAAGUCGCAACAGAGGAUUGAGCAUCA | 0.218 |

Sample 3 — technique: protein-binding microarray; molecule type: double-stranded DNA, one strand shown; matrix: in vitro; tested at: 940 nM top; setting: 60-bp whole probe; with: salmon DNA 0.4 mg/ml; relative to: random background probes; reading: higher = stronger binding
Target: Interferon regulatory factor 5, full length, phosphomimetic (IRF5, Homo sapiens, UniProt Q13568-2, residues 1-514, S451D/S453D/S456D/S462D)
| Sequence | fitted relative affinity |
| --- | --- |
| GCCTAGCACTTAGATATCACTCTCGATTAGTGCTAGGTCTTGATTCGCTTGACGCTGCTG | 3.34 z-score |
| GCCTAGCACGACGGACTGGACACTGGCGACGTGCTAGTCTTGATTCGCTTGACGCTGCTG | -0.674 z-score |
| GCCTAGCACCAGCGCGCAGCTGCCAGAACGTGCTAGGTCTTGATTCGCTTGACGCTGCTG | -0.898 z-score |

Further values, each from its own experiment
| Molecule | target | test | test system | setting | scale | quantity | result |
| --- | --- | --- | --- | --- | --- | --- | --- |
| PhoQ, residues 284 288 289 292 302 303 SLKLQV | PhoP, residues 12 14 15 18 19 IQSYL (Escherichia coli, UniProt P23836) | Sort-seq, measured: YFP reporter | E. coli | PhoQ-PhoP variant library, with: 10 µM Mg2+ | relative to: high Mg2+ state, higher = stronger signaling | fold induction | 13.9 |

Excerpt of the above (sample 1):
| Sequence | E-score |
| --- | --- |
| ATCTGAAG | -0.156 |
| AACAGATG | -0.121 |
